Assay results pooled from the literature.
Each numbered part is a random draw from the data of one study; scales do not carry over between parts.

Block 1
Target: RNA binding protein fox-1 homolog 2, RRM domain, GST-SBP tag (RBFOX2, Homo sapiens, UniProt O43251-10, residues 100-194)
Technique: RNA Bind-n-Seq
Molecule type: RNA
Sample: in vitro
Tested at: 365 nM
Notes: natural RNA segment, single round, ends assumed
Relative to: no-protein control
Direction: higher = stronger binding
Endpoint: RBNS enrichment (R)
Shared flanks, not repeated: GGGAGUUCUACAGUCCGACGAUC … UGGAAUUCUCGGGUGCCAA
Target sequence (chain): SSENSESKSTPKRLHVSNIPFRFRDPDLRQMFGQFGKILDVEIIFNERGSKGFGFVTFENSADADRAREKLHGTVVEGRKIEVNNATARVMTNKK
Oligonucleotide = AGAGCUUGCUCCAGAUUCUGAUGCAUACGGCUAUAUUGGUUUAUGUAGUCAGUUGCAUUCAUUAAAUCAACUUUAUCAUAUGCUCUUUUAAAUGUUUGGUUUAUAUAUUU; result = 0.613
Oligonucleotide = CAAAGGCCCUGACGGGCCCUGUCUUCAGGUUCUAGAAACUACCAGAAGAAGCUUCUUCCAUCUUAUCUACCUACUGCAGCUGCUGCUUUGCGGGGGGGCCCUACUGUACU; result = 0.346
Oligonucleotide = UCCCCACCCCUCCUCUUCCUUUGUCCUGUUGUUAAGGUUUUUUCAAGCAGUGUGUUCAGUAUGCAAAUCAAUUAUUUUAAGAAUCGCUUUUGUAAAUAUCUUUGUGAAUA; result = 1.26
Oligonucleotide = GUGGCUGGGGCCUGACACUGAGCUGUAGGGAAACUGAACUGUGAGGACCUCUGGUGAGAGGCCAGUGCCCUGCCCCACCCUGGAGCUUCAAAUAAAGAGCUUUUUACCCC; result = 0.302
Oligonucleotide = CUCAUUUAAUCUGUAAAGGUUUGUCGUAAUCCUCUACAAAGCUACUCCCUGUUAUUGUGUGCAAGUUUACACCAGGAUGCUCACUUGAUUUGUGAAUAUUUUUCAUUCCA; result = 0.76
Oligonucleotide = AGAUGUGUGCCAUACUCUGGUUCUUAGAGUUCCAGAGCUCCUUCAUUGGUUUUAAUAAACUCUAAGGUAGUUAAAGAUGAAGGGCCAGCAUAUAUUUAUAUGAUAAGUUU; result = 0.447
Oligonucleotide = GGUUUAGUGCUUUUUUAAAGGAAAGUUGUCCCAGGAUUCAUCCUAAAGAAAGCAAAAGUUAAUUCAACUGAUCCACCAAUGGAAUUAGAUGGGUAGAGUUGGGUUCUUGA; result = 0.455
Oligonucleotide = UGUCCCAGACUUCCUUUGUCUUCAACAACCUUCUGCAAGAAAACCAAGGGCCUGAAUUUUAACUUCCUGUGCACAAUGUACCUUUUGAGAUGAUUCGAAGGGCCUUUCAC; result = 0.558

Block 2
Target: Ras GTPase-activating protein-binding protein 1, RRM domain (G3BP1, Homo sapiens, UniProt Q13283)
Sequence of UniProt Q13283 (whole entry, looked up): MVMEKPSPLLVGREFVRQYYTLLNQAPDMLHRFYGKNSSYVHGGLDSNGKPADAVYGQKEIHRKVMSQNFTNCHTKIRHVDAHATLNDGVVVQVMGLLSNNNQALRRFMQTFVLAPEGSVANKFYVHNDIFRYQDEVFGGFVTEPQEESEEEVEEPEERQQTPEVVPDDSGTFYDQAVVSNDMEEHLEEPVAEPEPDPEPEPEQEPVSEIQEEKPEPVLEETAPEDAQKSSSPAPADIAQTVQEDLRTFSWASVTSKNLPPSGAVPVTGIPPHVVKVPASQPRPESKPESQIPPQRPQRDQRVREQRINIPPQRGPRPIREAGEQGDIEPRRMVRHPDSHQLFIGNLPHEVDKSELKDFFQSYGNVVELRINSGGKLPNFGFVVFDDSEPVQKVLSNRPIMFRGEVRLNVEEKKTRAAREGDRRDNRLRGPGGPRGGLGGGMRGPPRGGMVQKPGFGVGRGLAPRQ
Technique: RNA Bind-n-Seq
Molecule type: RNA
Sample: in vitro
Tested at: 1 µM
Notes: whole 134-nt RNA, ends assumed
Together with: 150 mM KCl
Relative to: input library
Direction: higher = stronger binding
Endpoint: log2 enrichment
Shared flanks, not repeated: GGGAGUUCUACAGUCCGACGAUC … UGGAAUUCUCGGGUGUCAAGG
Oligonucleotide = GUCCUGUGCUACACAUCGUAUGUACCGAAUCGGGUUUUUGGGAAAGGGAAAAAAAGGGAAAGUAUUAUGUUACGCCGUUCGGAUCUGCAC; result = 0.0877
Oligonucleotide = CCUGUGCUACACAUCGUAUGUACCGAAUCGGGAAAAAAAGGGUUUUUGGGUUUUUUUGGGAAAGUAUUAUGUUACGCCGUUCGGAUCUGC; result = -0.198
Oligonucleotide = CCUGUGCUACACAUCGUAUGUACCGAAUCGGGGCCCCCCCGGCCCCCCCGGCCCCCCCGGGAAAGUAUUAUGUUACGCCGUUCGGAUCUG; result = -0.744
Oligonucleotide = UCCUGUGCUACACAUCGUAUGUACCGAAUCGGGUUUUUGGGUUUUUUUGGGAAAAAGGGAAAGUAUUAUGUUACGCCGUUCGGAUCUGCA; result = 0.0527
Oligonucleotide = UAACUUUAGAGGAGGAUCUGAUGGAUAUGGCAGUGAACGUGGAUUUGGGGAUGGCUAUAAUGGGUAUGGAGGAGGACCUGGAGGUGGCAA; result = -0.415
Oligonucleotide = UGGCCCUGGUGGCAUGCGGGGAGGAAGAGGUGGCCUCAUGGAUCGUGGUGGUCCCGGUGGAAUGUUCAGAGCUGGCCGUGGUGGAGACAG; result = 2.27
Oligonucleotide = UGGGAGGUGGAUUUUGUUUAUUUUUUUAGCUCAUUUCCAGGGGUGGGAAUUUUUUUUUAAUAUUUGUCAUGAAUAAAGUUGUUUUUGAAA; result = 1.34
Oligonucleotide = CUCAAGUCCUGUGCUACACAUCGUAUGUACCGAAUCGGAAAGGUGGUUUUUGGAAAGUAUUAUGUUACGCCGUUCGGAUCUGCACUUCCA; result = -0.198
Oligonucleotide = ACCAUGCAGGUGGGCAUCUGUGGGAAGUGGGGCAAGGGGGGGAUAGGGAGGGGGGUAACACUUUGGGAACAGGUGGUCCCAGGUCGUUUC; result = -0.463

Block 3
Target: Histone acetyltransferase KAT6A, both winged helices, GST fusion (KAT6A, Homo sapiens, UniProt Q92794, residues 1-181)
Technique: protein binding microarray
Molecule type: double-stranded DNA, one strand shown
Sample: in vitro
Tested at: not given
Notes: 8-mer, flanks averaged, mean of 2 arrays, mostly near background
Relative to: not given
Direction: higher = stronger binding
Endpoint: E-score
Target sequence (chain): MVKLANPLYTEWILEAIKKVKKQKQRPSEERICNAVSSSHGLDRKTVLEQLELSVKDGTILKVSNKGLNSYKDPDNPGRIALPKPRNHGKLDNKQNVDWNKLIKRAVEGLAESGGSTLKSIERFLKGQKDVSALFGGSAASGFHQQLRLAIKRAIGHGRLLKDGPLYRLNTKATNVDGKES
Oligonucleotide = ATTGTTGA; result = -0.0692
Oligonucleotide = AGACTCTA; result = -0.0724
Oligonucleotide = CATGGTCA; result = 0.0199
Oligonucleotide = AGGATCAA; result = -0.084
Oligonucleotide = TACCCGCA; result = 0.236
Oligonucleotide = CCGCTGAG; result = 0.121
Oligonucleotide = AAGAGACT; result = -0.153
Oligonucleotide = ATATAAGG; result = -0.127
Oligonucleotide = GAGGCATC; result = -0.135
Oligonucleotide = AAAGGGAA; result = -0.0758
Oligonucleotide = ATTCTTAG; result = -0.14
Oligonucleotide = CTGTGTCC; result = -0.0435
Oligonucleotide = AGGTTTGC; result = -0.161
Oligonucleotide = CACTGAAG; result = -0.0372
Oligonucleotide = CGACGACA; result = -0.0673
Oligonucleotide = CTTGTGAC; result = 0.0623
Oligonucleotide = CGATAGGA; result = 0.0499
Oligonucleotide = ACCCGGGC; result = 0.256
Oligonucleotide = GCAAGACC; result = -0.0113

Block 4
Target: Sal-like protein 4, full length isoform B (SALL4, Homo sapiens, UniProt Q9UJQ4-2, residues 1-616)
Technique: universal PBM
Molecule type: double-stranded DNA, one strand shown
Sample: in vitro
Tested at: not given
Notes: 8-mer, flanks averaged, mean of replicates
Direction: higher = stronger binding
Endpoint: E-score
Target sequence (chain): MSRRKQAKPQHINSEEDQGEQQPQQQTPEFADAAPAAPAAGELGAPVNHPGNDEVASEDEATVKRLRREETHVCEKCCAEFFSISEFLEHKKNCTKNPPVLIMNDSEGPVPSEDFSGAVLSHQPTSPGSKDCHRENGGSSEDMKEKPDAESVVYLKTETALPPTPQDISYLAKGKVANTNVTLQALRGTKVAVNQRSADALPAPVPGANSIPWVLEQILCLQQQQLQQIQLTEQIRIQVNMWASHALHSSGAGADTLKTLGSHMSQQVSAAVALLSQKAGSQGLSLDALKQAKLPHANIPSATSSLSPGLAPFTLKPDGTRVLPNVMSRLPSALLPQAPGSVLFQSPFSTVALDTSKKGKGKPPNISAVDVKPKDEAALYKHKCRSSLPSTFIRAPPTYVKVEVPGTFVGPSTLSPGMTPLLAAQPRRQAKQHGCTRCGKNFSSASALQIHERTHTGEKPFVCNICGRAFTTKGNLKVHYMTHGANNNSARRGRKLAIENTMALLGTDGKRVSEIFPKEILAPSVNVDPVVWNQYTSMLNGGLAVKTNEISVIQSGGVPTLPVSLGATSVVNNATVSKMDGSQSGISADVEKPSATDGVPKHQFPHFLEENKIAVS
Oligonucleotide = CCCTATAG; result = -0.0204
Oligonucleotide = CAATGTGC; result = 0.0507
Oligonucleotide = TATACCGA; result = 0.166
Oligonucleotide = GCAGACAC; result = -0.0888
Oligonucleotide = ACTCGGTG; result = -0.18
Oligonucleotide = CACCGCAC; result = -0.333
Oligonucleotide = ACCGTGCA; result = -0.129
Oligonucleotide = CACTAAGC; result = -0.159
Oligonucleotide = ACGGAACC; result = -0.0946
Oligonucleotide = GATCCCCA; result = -0.226
Oligonucleotide = CATGCGGG; result = -0.313
Oligonucleotide = AAGATCCT; result = 0.144
Oligonucleotide = AAGCCACT; result = -0.0744
Oligonucleotide = GGATCGTA; result = -0.0307
Oligonucleotide = AGGCAGGG; result = -0.119
Oligonucleotide = TATAGGGA; result = 0.0988
Oligonucleotide = CAAAGTGG; result = -0.242
Oligonucleotide = CTGAGTTC; result = -0.0965
Oligonucleotide = CCCAGAGA; result = -0.195
Oligonucleotide = AATCTCCT; result = 0.0425
Oligonucleotide = CGAACGAA; result = -0.138
Oligonucleotide = TAGTAACA; result = 0.171
Oligonucleotide = GGATGACA; result = 0.0272
Oligonucleotide = CGGAGTAC; result = -0.22
Oligonucleotide = AGGTTAAG; result = -0.12

Further values, each from its own experiment
Molecule = PhoQ, residues 284 288 289 292 302 303 TYGVAM; target = PhoP, residues 12 14 15 18 19 NFCKL (Escherichia coli, UniProt P23836); assay = Sort-seq, refers to: YFP reporter; system = E. coli; conditions = PhoQ-PhoP variant library, together with: 10 µM Mg2+; scale = relative to: high Mg2+ state, higher = stronger signaling; endpoint = fold induction; result = 20.4

Repeated from above (block 4):
Oligonucleotide = CGAACGAA; result = -0.138
Oligonucleotide = GGATGACA; result = 0.0272
Oligonucleotide = CACCGCAC; result = -0.333
Oligonucleotide = AGGCAGGG; result = -0.119
Oligonucleotide = GGATCGTA; result = -0.0307
Oligonucleotide = GATCCCCA; result = -0.226
Oligonucleotide = ACCGTGCA; result = -0.129
